Experimental data collected from several papers.
Numbered parts are unrelated; each lists some results of a single study. “And” joins repeats or separate records; there may be more than shown.

Series 1
Target: Sodium-dependent neutral amino acid transporter B(0)AT1 (SLC6A19, Homo sapiens, UniProt Q695T7)
UniProt Q695T7, sequence (whole entry, looked up): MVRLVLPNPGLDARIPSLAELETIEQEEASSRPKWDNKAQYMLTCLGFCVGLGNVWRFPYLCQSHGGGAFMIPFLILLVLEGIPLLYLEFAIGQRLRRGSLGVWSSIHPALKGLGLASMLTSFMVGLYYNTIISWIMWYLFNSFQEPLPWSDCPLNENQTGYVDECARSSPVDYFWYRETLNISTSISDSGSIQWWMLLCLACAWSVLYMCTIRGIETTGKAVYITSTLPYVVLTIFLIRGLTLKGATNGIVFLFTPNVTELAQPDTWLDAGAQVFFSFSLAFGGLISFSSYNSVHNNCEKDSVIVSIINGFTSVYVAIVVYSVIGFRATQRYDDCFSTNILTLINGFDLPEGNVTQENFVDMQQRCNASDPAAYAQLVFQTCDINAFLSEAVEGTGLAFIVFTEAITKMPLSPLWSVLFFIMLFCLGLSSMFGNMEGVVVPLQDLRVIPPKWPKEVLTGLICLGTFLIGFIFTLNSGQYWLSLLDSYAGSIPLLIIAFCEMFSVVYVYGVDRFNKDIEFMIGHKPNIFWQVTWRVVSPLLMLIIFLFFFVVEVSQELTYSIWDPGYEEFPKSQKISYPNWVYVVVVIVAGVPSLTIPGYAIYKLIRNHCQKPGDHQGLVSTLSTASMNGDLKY
Method: FLIPR membrane potential
Cells: CHO-BC
Concentration: 30 µM
Notes: unit not given
Relative to: uninhibited
| Structure (SMILES) | remaining activity |
| --- | --- |
| Cc1cc(OCC(=O)NC(C)C)cc(C)c1I | 0.169 and 0.082 and 0.18 and 0.178 |
| CCNC(=O)COc1cc(C)c(Cl)c(C)c1 | 0.539 and 0.5 and 0.56 and 0.483 and 0.465 |
| Cc1cc(OCC(=O)NC(C)C)cc(C)c1Br | 0.27 and 0.196 and 0.208 and 0.237 |

Series 2
Cell line: Gaucher fibroblasts L444P/L444P
Method: 4-MUG hydrolysis, cell lysate
Concentration: 10 µM
Relative to: DMSO
| Structure (SMILES) | GCase activity |
| --- | --- |
| Ic1ccc(Nc2nc(NCCN3CCCCC3)nc(N3CCOCC3)n2)cc1 | 86.9% and 99.7% and 110% and 102% and 92% and 81.5% |
| Ic1ccc(Nc2nc(N3CCOCC3)nc(N3CCOCC3)n2)cc1 | 195% and 78.9% and 193% and 59.7% and 202% |
| Ic1ccc(Nc2nc(NCCCN3CCOCC3)nc(N3CCOCC3)n2)cc1 | 129% and 135% and 124% and 120% and 139% and 121% |
| Ic1ccc(Nc2nc(NCCN3CCOCC3)nc(N3CC4CC3CO4)n2)cc1 (stereo not drawn) | 112% and 106% and 105% and 99.3% and 101% |
| Ic1ccc(Nc2nc(NCCN3CCOCC3)nc(N3CCNCC3)n2)cc1 | 9.16% and 7.81% and 5.72% and 7.88% and 6.38% and 3.48% |
| CCOc1ccc2nc(Sc3nc(NCCN4CCOCC4)nc(Nc4ccc(I)cc4)n3)sc2c1 | 111% and 123% and 133% and 118% and 134% |
| Fc1ccc(Nc2nc(NCCN3CCOCC3)nc(N3CCOCC3)n2)cc1 | 104% and 105% and 106% and 109% and 99.7% |
| CCN(CC)c1nc(NCCN2CCOCC2)nc(Nc2ccc(I)cc2)n1 | 68.7% and 62.9% and 63.5% and 75.1% |

Series 3
Structure (SMILES): CCN1/C(=C/C=C2\CCCC(/C=C/C3=[N+](CC)c4ccccc4C3(C)C)=C2NCCCCCCCCN2CCC(Nc3nc4ccccc4n3Cc3ccc(F)cc3)CC2)C(C)(C)c2ccccc21
Cell line: U-87 MG
Concentration: concentration not given
Relative to: DMSO
| refers to | log2 fold change |
| --- | --- |
| VGLL3 mRNA | -1.35 |
| CLDN15 mRNA | 1.29 |
| CSF3 mRNA | 2.47 |
| RARB mRNA | -2.03 |
| NRG1 mRNA | 1.5 |
| RPS10-NUDT3 mRNA | 6.17 |
| PDGFRB mRNA | -2.28 |
| FIBCD1 mRNA | -1.71 |

Single results of other studies
Dose: 30 mg/kg
| SMILES | tested on | assay | system | setting | scale | quantity | value |
| --- | --- | --- | --- | --- | --- | --- | --- |
| Cc1nc(C)c(C=[N+]([O-])C(C)(C)C)nc1C | CDK5 | Western blot | MPTP mouse model | unit not given | relative to: β-actin | CDK5 protein level | 116 and 123 and 174 and 145 |
| Cn1cc(-c2cccc(CN3CCC4(CC3)COc3c4ccc4c3CN([C@H]3CCC(=O)NC3=O)C4=O)c2)cn1 |  |  | Crbn I391V mouse, MC-38 tumour | oral, daily, animals reaching endpoint, added: anti-LAG3 antibody 10 mg/kg i.p. weekly |  | time to tumour volume 2000 mm3 | 32 days and 26 days |

For quick reference, copied from above (series 1):
| Structure (SMILES) | remaining activity |
| --- | --- |
| Cc1cc(OCC(=O)NC(C)C)cc(C)c1Br | 0.27 and 0.196 and 0.208 and 0.237 |
| Cc1cc(OCC(=O)NC(C)C)cc(C)c1I | 0.169 and 0.082 and 0.18 and 0.178 |
| CCNC(=O)COc1cc(C)c(Cl)c(C)c1 | 0.539 and 0.5 and 0.56 and 0.483 and 0.465 |
